Assay results gathered from unrelated publications.
Protocols differ between the studies behind these lines. Values joined by “and” are separate records of one study, mostly repeats; a detail may differ. Numbers after ± are the reported error.
CSNK2A1: Casein kinase II subunit alpha (CSNK2A1, Homo sapiens, UniProt P68400)
UniProt P68400, sequence (whole entry, looked up): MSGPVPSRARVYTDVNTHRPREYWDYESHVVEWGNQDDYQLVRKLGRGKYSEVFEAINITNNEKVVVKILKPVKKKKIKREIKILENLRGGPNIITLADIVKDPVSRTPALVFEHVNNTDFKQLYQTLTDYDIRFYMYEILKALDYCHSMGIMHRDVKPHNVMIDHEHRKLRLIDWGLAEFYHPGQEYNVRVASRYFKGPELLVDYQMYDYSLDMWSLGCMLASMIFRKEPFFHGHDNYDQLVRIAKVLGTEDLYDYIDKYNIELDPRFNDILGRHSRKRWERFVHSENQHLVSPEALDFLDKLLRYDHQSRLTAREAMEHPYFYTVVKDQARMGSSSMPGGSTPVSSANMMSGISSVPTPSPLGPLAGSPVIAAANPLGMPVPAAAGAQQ
Metallo-beta-lactamase type 2: Metallo-beta-lactamase type 2 (Serratia marcescens, UniProt P52699)
UniProt P52699, sequence (whole entry, looked up): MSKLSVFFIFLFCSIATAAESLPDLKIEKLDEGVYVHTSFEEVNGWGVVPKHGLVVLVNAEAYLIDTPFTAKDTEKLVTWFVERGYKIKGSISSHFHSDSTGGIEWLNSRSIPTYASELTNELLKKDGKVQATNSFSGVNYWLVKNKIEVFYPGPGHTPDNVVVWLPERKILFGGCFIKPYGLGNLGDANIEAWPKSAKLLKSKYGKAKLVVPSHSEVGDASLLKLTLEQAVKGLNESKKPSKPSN
UniProt P40261, sequence (whole entry, looked up): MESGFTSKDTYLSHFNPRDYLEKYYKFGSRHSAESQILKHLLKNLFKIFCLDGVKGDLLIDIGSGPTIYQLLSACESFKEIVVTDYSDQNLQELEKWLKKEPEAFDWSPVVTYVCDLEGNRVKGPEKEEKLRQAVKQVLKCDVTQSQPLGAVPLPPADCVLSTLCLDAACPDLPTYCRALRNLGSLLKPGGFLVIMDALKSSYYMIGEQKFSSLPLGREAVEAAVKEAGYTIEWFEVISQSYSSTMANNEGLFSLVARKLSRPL
UniProt Q86TU7, sequence (whole entry, looked up): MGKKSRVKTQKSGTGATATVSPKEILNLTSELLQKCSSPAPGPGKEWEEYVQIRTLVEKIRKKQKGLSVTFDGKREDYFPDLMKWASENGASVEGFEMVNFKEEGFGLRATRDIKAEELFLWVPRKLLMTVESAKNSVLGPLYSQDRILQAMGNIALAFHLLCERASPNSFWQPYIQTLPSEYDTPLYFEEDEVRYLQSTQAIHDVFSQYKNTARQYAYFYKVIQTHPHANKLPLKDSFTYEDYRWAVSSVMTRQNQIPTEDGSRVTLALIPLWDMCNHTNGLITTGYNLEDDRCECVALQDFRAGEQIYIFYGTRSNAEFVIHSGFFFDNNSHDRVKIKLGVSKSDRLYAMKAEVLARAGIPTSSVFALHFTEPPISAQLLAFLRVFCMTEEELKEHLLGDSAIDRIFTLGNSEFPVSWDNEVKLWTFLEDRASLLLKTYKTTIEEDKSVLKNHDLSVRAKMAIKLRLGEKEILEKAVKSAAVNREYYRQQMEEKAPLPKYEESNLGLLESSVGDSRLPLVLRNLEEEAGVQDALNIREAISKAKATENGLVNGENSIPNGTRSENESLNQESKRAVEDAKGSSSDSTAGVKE
UniProt C7C422, sequence (whole entry, looked up): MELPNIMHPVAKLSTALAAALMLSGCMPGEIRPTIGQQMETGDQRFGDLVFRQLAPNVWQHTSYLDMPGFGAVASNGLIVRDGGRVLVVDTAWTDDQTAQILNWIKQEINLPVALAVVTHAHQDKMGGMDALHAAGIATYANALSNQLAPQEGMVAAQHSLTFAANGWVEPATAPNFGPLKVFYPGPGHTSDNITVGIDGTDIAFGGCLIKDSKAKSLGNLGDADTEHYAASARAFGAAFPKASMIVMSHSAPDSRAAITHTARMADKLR
UniProt P26718, sequence (whole entry, looked up): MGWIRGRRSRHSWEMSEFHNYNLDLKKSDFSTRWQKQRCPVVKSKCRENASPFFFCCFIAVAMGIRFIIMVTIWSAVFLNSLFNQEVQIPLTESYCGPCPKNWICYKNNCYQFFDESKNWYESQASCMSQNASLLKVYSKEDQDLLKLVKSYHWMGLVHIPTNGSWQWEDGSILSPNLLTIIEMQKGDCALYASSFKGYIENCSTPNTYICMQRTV
UniProt P30101, sequence (whole entry, looked up): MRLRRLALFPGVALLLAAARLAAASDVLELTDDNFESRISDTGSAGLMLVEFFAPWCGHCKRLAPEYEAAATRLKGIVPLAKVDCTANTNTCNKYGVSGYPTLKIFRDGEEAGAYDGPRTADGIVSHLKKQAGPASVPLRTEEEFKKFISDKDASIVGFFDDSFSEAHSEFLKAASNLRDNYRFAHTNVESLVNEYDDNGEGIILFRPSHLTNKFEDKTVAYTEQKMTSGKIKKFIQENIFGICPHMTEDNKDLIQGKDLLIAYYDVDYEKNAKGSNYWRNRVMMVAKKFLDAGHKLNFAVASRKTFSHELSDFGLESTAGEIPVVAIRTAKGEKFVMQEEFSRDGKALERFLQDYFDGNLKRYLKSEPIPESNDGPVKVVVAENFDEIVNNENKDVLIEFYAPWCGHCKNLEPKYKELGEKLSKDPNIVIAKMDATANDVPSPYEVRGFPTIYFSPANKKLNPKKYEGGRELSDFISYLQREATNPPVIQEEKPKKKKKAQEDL
UniProt P0A6M2, sequence (whole entry, looked up): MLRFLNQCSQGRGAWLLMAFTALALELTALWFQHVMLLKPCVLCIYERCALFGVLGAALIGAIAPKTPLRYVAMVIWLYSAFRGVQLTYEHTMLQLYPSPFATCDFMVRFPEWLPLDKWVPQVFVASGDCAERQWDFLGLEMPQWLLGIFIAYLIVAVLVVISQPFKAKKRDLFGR
UniProt P43219, sequence (whole entry, looked up): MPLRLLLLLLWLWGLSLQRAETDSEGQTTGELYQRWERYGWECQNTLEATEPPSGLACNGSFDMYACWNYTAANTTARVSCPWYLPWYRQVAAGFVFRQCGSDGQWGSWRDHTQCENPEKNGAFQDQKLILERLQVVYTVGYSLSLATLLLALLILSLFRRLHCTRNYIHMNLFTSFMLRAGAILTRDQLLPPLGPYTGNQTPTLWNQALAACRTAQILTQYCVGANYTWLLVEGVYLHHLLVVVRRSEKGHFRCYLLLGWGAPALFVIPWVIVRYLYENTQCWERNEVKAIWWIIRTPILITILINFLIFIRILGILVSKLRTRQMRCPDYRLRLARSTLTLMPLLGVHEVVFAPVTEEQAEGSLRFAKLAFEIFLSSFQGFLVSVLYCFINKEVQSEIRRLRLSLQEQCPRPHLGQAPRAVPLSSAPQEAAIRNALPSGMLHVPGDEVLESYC
UniProt P32300, sequence (whole entry, looked up): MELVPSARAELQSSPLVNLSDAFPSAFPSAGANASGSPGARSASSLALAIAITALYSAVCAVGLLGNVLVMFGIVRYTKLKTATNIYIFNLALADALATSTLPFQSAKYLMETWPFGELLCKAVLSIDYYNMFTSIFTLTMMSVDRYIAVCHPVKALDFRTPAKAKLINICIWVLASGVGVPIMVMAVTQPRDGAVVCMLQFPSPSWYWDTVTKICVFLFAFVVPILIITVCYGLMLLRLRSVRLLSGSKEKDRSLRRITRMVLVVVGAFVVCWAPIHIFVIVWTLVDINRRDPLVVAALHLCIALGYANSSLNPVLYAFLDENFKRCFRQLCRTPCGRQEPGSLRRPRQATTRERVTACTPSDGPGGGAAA
UniProt P11309, sequence (whole entry, looked up): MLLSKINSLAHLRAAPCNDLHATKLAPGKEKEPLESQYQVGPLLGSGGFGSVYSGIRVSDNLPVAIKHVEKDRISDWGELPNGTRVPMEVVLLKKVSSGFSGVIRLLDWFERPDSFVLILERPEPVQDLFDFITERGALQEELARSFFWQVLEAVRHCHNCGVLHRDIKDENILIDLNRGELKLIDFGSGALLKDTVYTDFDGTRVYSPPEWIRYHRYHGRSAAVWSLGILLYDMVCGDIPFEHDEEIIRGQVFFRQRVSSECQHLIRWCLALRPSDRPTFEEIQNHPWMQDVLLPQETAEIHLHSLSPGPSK
UniProt P25084, sequence (whole entry, looked up): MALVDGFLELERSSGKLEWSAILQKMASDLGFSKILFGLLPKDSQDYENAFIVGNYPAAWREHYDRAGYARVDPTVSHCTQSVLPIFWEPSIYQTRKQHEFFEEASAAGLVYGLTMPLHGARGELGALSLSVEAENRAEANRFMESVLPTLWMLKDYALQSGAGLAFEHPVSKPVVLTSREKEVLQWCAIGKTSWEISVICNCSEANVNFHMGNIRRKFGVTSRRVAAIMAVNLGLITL
UniProt P10632, sequence (whole entry, looked up): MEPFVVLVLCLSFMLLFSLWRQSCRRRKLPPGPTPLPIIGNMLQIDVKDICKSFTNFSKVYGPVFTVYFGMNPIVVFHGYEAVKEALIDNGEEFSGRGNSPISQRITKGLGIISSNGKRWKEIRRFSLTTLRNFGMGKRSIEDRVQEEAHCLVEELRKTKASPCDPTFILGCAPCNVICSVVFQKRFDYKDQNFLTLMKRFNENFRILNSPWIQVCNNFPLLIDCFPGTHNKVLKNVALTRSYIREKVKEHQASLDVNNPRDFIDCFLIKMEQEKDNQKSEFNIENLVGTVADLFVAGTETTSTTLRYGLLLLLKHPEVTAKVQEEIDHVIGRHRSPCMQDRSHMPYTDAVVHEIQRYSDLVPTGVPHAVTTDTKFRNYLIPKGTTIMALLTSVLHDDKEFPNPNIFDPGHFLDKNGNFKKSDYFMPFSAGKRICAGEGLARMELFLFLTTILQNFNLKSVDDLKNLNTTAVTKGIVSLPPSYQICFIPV

`CNC(=O)C1OC(n2cnc3c(NCc4cccc(I)c4)ncnc32)C(O)C1O` (centres unmarked) gave an IC50 of 50 µM (ABCB1 (Homo sapiens, UniProt P08183); transport, inhibitor).
The IC50 of `COC1CC(=O)N(C)C=CCCCC(=O)N(C)C(C(C)C)C(=O)N(C)C(CC(C)C)C(=O)OC(C(C)C)CC(C)C1` (centres unmarked) is reported as ~98.6 µM (TACR3 (Homo sapiens, UniProt P29371); β-arrestin recruitment, antagonist).
For `CC(C)(C)c1ccc(S(=O)(=O)N2CC2C(N)=O)cc1` (centres unmarked), the IC50 was 77 µM (PDIA3 (Homo sapiens, UniProt P30101); enzyme activity, inhibitor, absorbance; pH 7.6).
`CC(C)(O)c1ccccc1CC[C@H](c1cccc(/C=C/c2ccc3ccc(Cl)cc3n2)c1)S(=O)(=O)CC1(CC(=O)O)CC1` gave an IC50 of 0.02 µM (Cytochrome P450 2C8 (CYP2C8, Homo sapiens, UniProt P10632); inhibitor; human liver microsomes; pH 7.4, added: paclitaxel).
`CN[C@@H](C)C(=O)N[C@H](C(=O)N1C[C@@H](NC(=O)COCCOCc2cn(CCNC(=O)CN(Cc3cccs3)C(=O)[C@H](NS(=O)(=O)c3cc4ccc(O)nc4cc3Cl)c3ccccc3OC)nn2)C[C@H]1C(=O)N[C@@H]1CCCc2ccccc21)C1CCCCC1` has an IC50 of 1.5 µM (OGT (Homo sapiens, UniProt O15294); enzyme activity, inhibitor, fluorescence).
`CC[C@H](C)[C@H](NC(=O)CNC(=O)[C@H](Cc1ccccc1)NC(=O)[C@@H]1CSCC(=O)N[C@H](Cc2ccc(O)cc2)C(=O)N2CCC[C@H]2C(=O)N[C@@H](CCCCN)C(=O)N1)C(=O)N[C@@H](CCCCN)C(=O)N[C@@H](Cc1ccccc1)C(=O)N[C@@H](CCCNC(=N)N)C(=O)N[C@@H](CC(=O)O)C(=O)N[C@@H](CCCNC(=N)N)C(=O)N[C@@H](Cc1ccccc1)C(=O)N[C@@H](CC(C)C)C(=O)N[C@@H](CC(C)C)C(=O)N[C@@H](CC(C)C)C(=O)N[C@@H](C)C(=O)NCC(N)=O` gave an IC50 of 4.43 µM and ~5 µM (NNMT (Homo sapiens, UniProt P40261); enzyme activity, inhibitor, mass spectrometry).
With `Cc1cccc(-c2nc(Nc3ccncn3)c3sccc3n2)n1` the IC50 was 31 µM (CYP2C19 (Homo sapiens, UniProt P33261); inhibitor).
The IC50 of `CCn1nnc(-c2cccc(NC(=O)[C@H](C)CS)c2)n1` is reported as 3.02 µM (blaNDM-1 (Klebsiella pneumoniae, UniProt C7C422); enzyme activity, inhibitor, fluorescence; with preincubation).
The IC50 of `CN(C)C(=O)[C@@H](NC(=O)c1cc(-c2ccnn2C)ccc1-c1ccc(C(F)(F)F)cc1)c1cccc(C(F)(F)F)c1` is reported as 0.3 ± 0.1 µM (NKG2-D type II integral membrane protein, with MICA (KLRK1, Homo sapiens, UniProt P26718); ligand binding, inhibitor, TR-FRET; HEK293 expressing NKG2D and DAP10; added: MICA-Alexa647).
For `O=C(COc1ccc2c(c1O)C(=O)c1ccccc1C2=O)c1ccccc1`, the IC50 was 60 ± 5 µM (Gag-Pol polyprotein, reverse transcriptase (gag-pol, Human immunodeficiency virus 1, UniProt P03366); RNA-dependent DNA polymerase activity; wild-type reverse transcriptase).
`CCNCCN(C)c1ccc(Nc2cc(NC3CC3)n3ncc(C#N)c3n2)cc1NC(=O)CC` gave an IC50 of 0.02 µM (CSNK2A1; target engagement in cells, BRET).
For `Nc1nc2nc3nc(N)sc3cc2s1`, the IC50 was > 500 µM (Genome polyprotein, NS3 protease (Hepatitis C virus genotype 1b, UniProt P26663); Hepatitis C virus).
`Cn1nnc(-c2cccc(NC(=O)CS)c2)n1` gave an IC50 of 0.94 µM (Metallo-beta-lactamase type 2; inhibitor; 10 min preincubation, added: FC5 substrate).
With `CC[C@H](C)[C@H](NC(=O)[C@H](CO)NC(=O)[C@H](Cc1ccc(O)cc1)NC(=O)[C@H](CC(=O)O)NC(=O)[C@H](CO)NC(=O)[C@@H](NC(=O)[C@H](Cc1ccccc1)NC(=O)[C@@H](NC(=O)CNC(=O)[C@@H]1CCCN1C(=O)[C@H](C)NC(=O)[C@@H](N)Cc1ccc(O)cc1)[C@@H](C)O)[C@@H](C)CC)C(=O)N[C@@H](C)C(=O)N[C@@H](CCSC)C(=O)N[C@@H](CC(=O)O)C(=O)N[C@@H](CCCCN)C(=O)N[C@H](C(=O)N[C@@H](CCCNC(=N)N)C(=O)N[C@@H](CCC(N)=O)C(=O)N[C@@H](CCC(N)=O)C(=O)N[C@@H](CC(=O)O)C(=O)N[C@@H](Cc1ccccc1)C(=O)N[C@H](C(=O)N[C@@H](CC(N)=O)C(=O)N[C@@H](Cc1c[nH]c2ccccc12)C(=O)N[C@@H](CC(C)C)C(=O)N[C@@H](CC(C)C)C(=O)N[C@@H](C)C(=O)N[C@@H](CCC(N)=O)C(=O)N[C@@H](CCCCN)C(=O)NCC(=O)N[C@@H](CCCCN)C(=O)N[C@@H](CCCCN)C(=O)N[C@@H](CC(N)=O)C(=O)N[C@@H](CC(=O)O)C(=O)N[C@@H](Cc1c[nH]c2ccccc12)C(=O)N[C@@H](CCCCN)C(=O)N[C@@H](Cc1c[nH]cn1)C(=O)N[C@@H](CC(N)=O)C(=O)N[C@@H](CC(C)C)C(=O)N[C@H](C(=O)N[C@@H](CCC(N)=O)C(=O)O)[C@@H](C)O)C(C)C)[C@@H](C)CC` the IC50 was 0.0126 µM (Gastric inhibitory polypeptide receptor (Rattus norvegicus, UniProt P43219); ligand displacement in cells, radioligand).
The IC50 of `CC(NC(=O)c1ccncc1)C(=O)N1CCCC1B(O)O` (centres unmarked) is reported as 0.104 µM (APEH (Homo sapiens, UniProt P13798); enzyme activity, inhibitor, fluorescence).
For `CCCCCCCCCC(=O)CC(=O)Nc1cccc(OC)c1`, the IC50 was 4.7 µM (lasR (Pseudomonas aeruginosa, UniProt P25084); reporter gene, antagonist; Escherichia coli, JLD271 with LasR plasmid; added: OdDHL 2 nM).
`Nc1ncnc2c1ncn2[C@@H]1O[C@H](CSCCNC(=O)NCC2CCCCC2)[C@@H](O)[C@H]1O` has an IC50 of > 50 µM (Actin-histidine N-methyltransferase (SETD3, Homo sapiens, UniProt Q86TU7); enzyme activity, inhibitor, radiometric).
For `Cc1cccc2c1NC(=O)C2=Cc1ccc(-c2cccc(C(=O)N3CCCN(C)CC3)c2)o1` (mixture of isomers), the IC50 was 0.0695 µM (PIM1 (Homo sapiens, UniProt P11309); enzyme activity, inhibitor).
The IC50 of `CN[C@H](CC(C)C)C(=O)N[C@H]1C(=O)N[C@@H](CC(N)=O)C(=O)N[C@H]2C(=O)N[C@H]3C(=O)N[C@H](C(=O)N[C@H](C(=O)O)c4cc(O)cc(O)c4-c4cc3ccc4O)[C@H](O)c3ccc(c(Cl)c3)Oc3cc2cc(c3O[C@@H]2O[C@H](CO)[C@@H](O)[C@H](O)[C@H]2O[C@H]2C[C@](C)(NCc3ccc(C(=O)OCCCCCCN(Cc4ccccn4)Cc4ccccn4)cc3)[C@H](O)[C@H](C)O2)Oc2ccc(cc2Cl)[C@H]1O` is reported as 1.2 ± 0.2 µM (Metallo-beta-lactamase type 2; enzyme activity, inhibitor, fluorescence).
The IC50 of `CC(C)[C@H](NC(=O)[C@@H]1CCCNC(=O)NCCCC[C@@H](NC(=O)[C@@H](N)Cc2ccc(O)cc2)C(=O)NCC(=O)N[C@@H](Cc2ccccc2)C(=O)N1)C(=O)N[C@H](C(=O)NCC(=O)NCCNC(N)=O)C(C)C` is reported as 0.00418 µM (Oprd1 (Mus musculus, UniProt P32300); contraction inhibition, agonist; mouse, isolated vas deferens).
With `O=c1c(Cl)c(Cl)cnn1Cc1ccccc1` the IC50 was 8.5 ± 0.6 µM (Disulfide bond formation protein B (Escherichia coli, UniProt P0A6M2); DsbA oxidation; aerobic growth).
`CC(C)C[C@H](NC(=O)[C@H](CCCNC(=N)N)NC(=O)[C@H](CCC(=O)O)NC(=O)[C@H](CCCCN)NC(=O)[C@H](CCCNC(=N)N)NC(=O)[C@H](CCCCN)NC(=O)[C@]1(C)CCCC=CCCC[C@](C)(NC(=O)[C@H](CC(C)C)NC(=O)[C@H](CO)NC(=O)[C@H](C)NC(=O)[C@H](CCCCN)NC(=O)[C@H](CCCNC(=N)N)NC(=O)[C@H](C)NC(=O)[C@H](CCC(N)=O)NC(=O)[C@@H]2CCCN2C(=O)[C@@H](NC(=O)[C@H](CO)NC(=O)c2ccc3c(c2)C(=O)OC32c3ccc(N(C)C)cc3Oc3cc(N(C)C)ccc32)C(C)C)C(=O)N[C@@H](CCCNC(=N)N)C(=O)N[C@@H](Cc2ccccc2)C(=O)N[C@@H](CC(C)C)C(=O)N1)C(=O)O` gave an IC50 of 4.5 ± 1.4 µM (Transcription factor MYC3 (MYC3, Arabidopsis thaliana, UniProt Q9FIP9); JAZ9 peptide binding, inhibitor, AlphaScreen; pH 8.0, 25 °C, added: 50 nM biotin-JAZ9 peptide).
`CC[C@H](C)[C@H](NC(=O)[C@H](CC(N)=O)NC(=O)[C@H](CCC(=O)O)NC(=O)[C@H](CCCCN)NC(=O)[C@@H](NC(=O)[C@@H](NC(=O)CN)[C@@H](C)O)[C@@H](C)CC)C(=O)N[C@H](C(=O)NCC(=O)N[C@H](C(=O)N[C@@H](CO)C(=O)N[C@@H](Cc1ccc(O)cc1)C(=O)N[C@@H](CC(=O)O)C(=O)N[C@@H](CCC(=O)O)C(=O)N[C@@H](Cc1ccc(O)cc1)C(=O)N[C@@H](CCCNC(=N)N)C(=O)N[C@@H](Cc1ccc(O)cc1)C(=O)N[C@@H](CCCNC(=N)N)C(=O)O)C(C)C)[C@@H](C)CC` has an IC50 of 15 µM (CSNK2A1; enzyme activity, inhibitor, radiometric; pH 7.5).
